Measurements gathered from unrelated publications.
Parts stem from different laboratories: compare values within a part only.

Set 1
Target: Ras GTPase-activating protein-binding protein 1, full length (G3BP1, Homo sapiens, UniProt Q13283)
Chain of UniProt Q13283 (whole entry, looked up): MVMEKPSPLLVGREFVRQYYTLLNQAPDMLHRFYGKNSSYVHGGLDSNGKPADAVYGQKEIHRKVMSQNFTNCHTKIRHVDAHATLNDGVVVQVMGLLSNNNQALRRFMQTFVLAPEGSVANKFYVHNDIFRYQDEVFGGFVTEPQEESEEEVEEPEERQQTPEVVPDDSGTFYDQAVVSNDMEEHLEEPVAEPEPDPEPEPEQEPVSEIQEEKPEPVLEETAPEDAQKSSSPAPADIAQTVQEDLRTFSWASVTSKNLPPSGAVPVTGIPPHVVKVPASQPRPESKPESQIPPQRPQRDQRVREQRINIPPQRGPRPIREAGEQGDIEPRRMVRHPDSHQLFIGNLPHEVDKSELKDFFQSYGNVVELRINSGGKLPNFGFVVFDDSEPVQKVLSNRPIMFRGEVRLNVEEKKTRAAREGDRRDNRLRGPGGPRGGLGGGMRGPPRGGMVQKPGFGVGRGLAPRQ
Method: RNA Bind-n-Seq
Form: RNA
Medium: in vitro
Tested at: 200 nM
Setting: whole 134-nt RNA, ends assumed
Together with: 150 mM LiCl
Reference: input library
Direction: higher = stronger binding
Library: 7-deaza-guanosine replaces G
`GGGAGUUCUACAGUCCGACGAUCUAACUUUAGAGCAGGAUCUGAUGGAUAUGGCAGUGGACGUGGAUUUGGGGAUGGCUAUAAUGGGUAUGGAGGAGGACCUGGAGGUGGCAAUGGAAUUCUCGGGUGUCAAGG` gave a log2 enrichment of -0.766.
With `GGGAGUUCUACAGUCCGACGAUCCACAGACAACACGCACCCACACAGACACAGGGGGAAGGGGUUGGGAUGGGGACAGGGUGCACAGCAGGGCGGGGUAGGACCCCAGCCCCUUGGAAUUCUCGGGUGUCAAGG` the log2 enrichment was -0.14.
The log2 enrichment of `GGGAGUUCUACAGUCCGACGAUCUGGAUCUUGGAGGGACCAACUUCCGUGUGCUUUGGGUGAAAGUAACGGACAAUGGGCUCCAGAAGGUGGAGAUGGAGAAUCAGAUCUAUGUGGAAUUCUCGGGUGUCAAGG` is reported as -0.465.

Set 2
Target: Histone acetyltransferase KAT6A, both winged helices, GST fusion (KAT6A, Homo sapiens, UniProt Q92794, residues 1-181)
Method: protein binding microarray
Form: double-stranded DNA, one strand shown
Medium: in vitro
Tested at: not given
Setting: 8-mer, flanks averaged, mean of 2 arrays, mostly near background
Reference: not given
Direction: higher = stronger binding
Residues (chain): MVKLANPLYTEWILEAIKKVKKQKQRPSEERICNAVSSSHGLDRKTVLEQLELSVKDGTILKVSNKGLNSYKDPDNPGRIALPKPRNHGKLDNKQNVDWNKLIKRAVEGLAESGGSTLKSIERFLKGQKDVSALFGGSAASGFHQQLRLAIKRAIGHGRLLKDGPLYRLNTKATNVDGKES
With `AAGAAAAC` the E-score was -0.0988.
The E-score of `ATTTGCTC` is reported as -0.139.
With `CCATGCCA` the E-score was -0.0489.
The E-score of `GCAGGTAA` is reported as 0.017.
`AGCAGGTA` gave an E-score of -0.102.

Set 3
Target: Sal-like protein 4, full length isoform A (SALL4, Homo sapiens, UniProt Q9UJQ4, residues 1-1053)
Chain of UniProt Q9UJQ4 (whole entry, looked up): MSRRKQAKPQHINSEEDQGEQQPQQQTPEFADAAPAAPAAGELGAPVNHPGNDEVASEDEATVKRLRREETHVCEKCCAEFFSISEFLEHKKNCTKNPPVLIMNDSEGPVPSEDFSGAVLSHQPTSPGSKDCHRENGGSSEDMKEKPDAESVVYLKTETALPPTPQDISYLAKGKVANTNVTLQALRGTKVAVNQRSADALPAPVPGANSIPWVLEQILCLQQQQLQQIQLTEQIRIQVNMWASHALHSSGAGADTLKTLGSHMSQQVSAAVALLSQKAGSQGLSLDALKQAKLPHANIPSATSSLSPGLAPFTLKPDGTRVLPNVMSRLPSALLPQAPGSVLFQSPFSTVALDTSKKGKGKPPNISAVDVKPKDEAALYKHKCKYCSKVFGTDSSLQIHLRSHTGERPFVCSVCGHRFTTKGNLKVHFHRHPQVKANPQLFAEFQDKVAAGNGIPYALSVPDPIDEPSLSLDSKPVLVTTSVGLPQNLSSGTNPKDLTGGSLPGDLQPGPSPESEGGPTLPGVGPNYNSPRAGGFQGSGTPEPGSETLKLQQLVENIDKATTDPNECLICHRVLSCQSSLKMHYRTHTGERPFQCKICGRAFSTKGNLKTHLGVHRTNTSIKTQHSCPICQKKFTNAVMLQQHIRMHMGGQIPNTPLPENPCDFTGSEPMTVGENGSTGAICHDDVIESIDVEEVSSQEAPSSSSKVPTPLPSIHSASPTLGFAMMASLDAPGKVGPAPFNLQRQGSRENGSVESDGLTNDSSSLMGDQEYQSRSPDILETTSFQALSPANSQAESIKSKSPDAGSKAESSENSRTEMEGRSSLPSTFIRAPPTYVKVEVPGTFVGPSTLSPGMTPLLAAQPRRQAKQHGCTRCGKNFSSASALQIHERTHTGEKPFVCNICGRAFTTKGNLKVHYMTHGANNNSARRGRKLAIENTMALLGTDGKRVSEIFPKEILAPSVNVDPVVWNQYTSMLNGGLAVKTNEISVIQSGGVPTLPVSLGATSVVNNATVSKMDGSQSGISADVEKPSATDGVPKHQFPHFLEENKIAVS
Method: universal PBM
Form: double-stranded DNA, one strand shown
Medium: in vitro
Tested at: 600 nM
Setting: 8-mer, flanks averaged, mean of replicates
Direction: higher = stronger binding
With `GTGGCGCA` the E-score was -0.0836.
With `ACGGGTAC` the E-score was -0.276.
`GAGGTGGC` gave an E-score of -0.168.
With `GCAACCGC` the E-score was -0.191.
`TCCTTCCA` gave an E-score of 0.00792.
With `CCGCCTGC` the E-score was -0.321.

Further values, each from its own experiment
The fold induction of `PhoQ, residues 284 288 289 292 302 303 GTAMQF` is reported as 1.16 (PhoP, residues 12 14 15 18 19 LWHCS (Escherichia coli, UniProt P23836); Sort-seq, item: YFP reporter; E. coli; PhoQ-PhoP variant library, together with: 10 µM Mg2+; reference: high Mg2+ state, higher = stronger signaling).

Repeated from above (set 1):
The log2 enrichment of `GGGAGUUCUACAGUCCGACGAUCUGGAUCUUGGAGGGACCAACUUCCGUGUGCUUUGGGUGAAAGUAACGGACAAUGGGCUCCAGAAGGUGGAGAUGGAGAAUCAGAUCUAUGUGGAAUUCUCGGGUGUCAAGG` is reported as -0.465.
With `GGGAGUUCUACAGUCCGACGAUCCACAGACAACACGCACCCACACAGACACAGGGGGAAGGGGUUGGGAUGGGGACAGGGUGCACAGCAGGGCGGGGUAGGACCCCAGCCCCUUGGAAUUCUCGGGUGUCAAGG` the log2 enrichment was -0.14.
